Assay results pooled from the literature.
Each line is one published result; not all experiments were run side by side. Values joined by “and” are separate records of one study, mostly repeats; a detail may differ. ± gives the spread as reported.

`CN1C[C@H](COc2nccc3c(NCc4ccco4)cc(Cl)nc23)OC1=O` gave a Cmax of 2500 nM (C57BL/6 mice, plasma; oral, 10 mg/kg).
`Cc1ncsc1-c1ccc(CNC(=O)[C@@H]2C[C@@H](O)CN2C(=O)[C@@H](NC(=O)CCCCCCCCCCCC(=O)NCCCCC#Cc2cccc(-c3nn(-c4nc(C(=O)O)cs4)c(CC4CC4)c3Cc3ccc(S(N)(=O)=O)cc3)c2)C(C)(C)C)cc1` gave a Cmax of 1800 nM (male Swiss albino mice, plasma; intraperitoneal, 5 mg/kg).
For `CC1(C)CC[C@]2(C(=O)O)CC[C@]3(C)C(=CC[C@@H]4[C@@]5(C)C[C@@H](O)[C@H](OC(=O)/C=C/c6ccc(O)cc6)C(C)(C)[C@@H]5CC[C@]43C)[C@@H]2C1` (relative stereo), the Cmax was 1.75 nmol/g (C57BL/6 mice, brain; intraperitoneal, 85 µmol/kg single dose).
`CNC(=O)c1cc(Oc2ccc(NC(=O)Nc3ccc(Cl)c(C(F)(F)F)c3)c(F)c2)cc[n+]1[O-]` gave a Cmax of 405 ± 20.6 ng/mL (Oatp1b2 knockout mice, plasma; oral, 10 mg/kg regorafenib).
`CNC(=O)c1cc(Oc2ccc(NC(=O)Nc3ccc(Cl)c(C(F)(F)F)c3)cc2)ccn1` has a Cmax of 4090 ng/mL (female wild-type DBA1/lacJ mice, plasma; oral, 10 mg/kg, geometric mean, with: rifampin 20 mg/kg i.v.).
`Cc1ncccc1-c1cnc(NCc2c(F)ccc3c2CCO3)n2cnnc12` has a Cmax of 5660 ng/mL (female CB17 SCID mice, HT-1376 xenograft, plasma; 75 mg/kg, day 1).
`CCNc1nc2c(c(N3CC(=O)Nc4cc(OC)ccc43)n1)CCC2` has a Cmax of roughly 4600 nM (C57BL/6 mice, female, plasma; intravenous, 4 mg/kg, molar equivalent).
For `Cn1c(C(F)(F)F)cc(=O)n(-c2cc(Oc3cccnc3OCC(=O)O)c(Cl)cc2F)c1=O`, the Cmax was 147 ng/mL (Crl:CD1(ICR) mice, male, plasma; oral diet, 25 ppm in diet, day 1, 90-day toxicity study).
With `Cc1c(C(=O)O)ccc2c3n(nc12)[C@@H]1[C@H](C3)N(CC2CC2)[C@@]2(C(=O)Nc3cc(Cl)ccc32)[C@H]1c1cccc(Cl)c1F` the Cmax was 2420 nM and 2450 nM and 2050 nM and 2230 nM and 1910 nM (female BALB/c nude mice, SJSA-1 xenograft, plasma; oral, 2 mg/kg once daily).
`COc1cc([C@H]2Oc3cc([C@H]4Oc5cc(O)cc(O)c5C(=O)[C@@H]4O)ccc3O[C@@H]2CO)ccc1O` gave a Cmax of 500 nM (FVB wild-type mice, plasma; oral gavage, 500 mg/kg silymarin).
With `C[C@H]1[C@@H](O)O[C@@H]2O[C@@]3(C)CC[C@H]4[C@H](C)CC[C@@H]1[C@@]24OO3` the Cmax was 936 ng/mL (female NSG mice, plasma; oral, 60 mg/kg artesunate).
`CCN1CCN(Cc2ccc(NC(=O)c3ccc(C)c(NC(=O)c4cncc(-c5cccs5)c4)c3)cc2C(F)(F)F)CC1` gave a Cmax of 2470 ng/mL (C57BL/6 mice, epithelial lining fluid; intraperitoneal, 30 mg/kg).
`C=CC(=O)N1CC2CC(n3nc(-c4ccc(C(=O)Nc5ccccn5)cc4)c4c(N)ncnc43)CC2C1` (stereo not shown) gave a Cmax of 6270 ng/mL (SCID mice, plasma; oral, 15 mg/kg twice daily).

Repeated from above:
`CCN1CCN(Cc2ccc(NC(=O)c3ccc(C)c(NC(=O)c4cncc(-c5cccs5)c4)c3)cc2C(F)(F)F)CC1` gave a Cmax of 2470 ng/mL (C57BL/6 mice, epithelial lining fluid; intraperitoneal, 30 mg/kg).
